Published values from different studies.
A part holds a random share of what one study measured.

Sample 1
Target: Fragile X messenger ribonucleoprotein 1, C-terminal low-complexity region (Fmr1, Mus musculus, UniProt P35922)
Technique: RNA Bind-n-Seq
Form: RNA
Medium: in vitro
Concentration: 200 nM
Notes: whole 134-nt RNA, ends assumed
Added: 150 mM LiCl
Baseline: input library
Direction: higher = stronger binding
Measurement: log2 enrichment
All molecules: 7-deaza-guanosine replaces G
All sequences stand within: GGGAGUUCUACAGUCCGACGAUC … UGGAAUUCUCGGGUGUCAAGG
Oligonucleotide = GUCCUGUGCUACACAUCGUAUGUACCGAAUCGGGGCCCCCGGCCCCCGGCCCCCGGGGAAAGUAUUAUGUUACGCCGUUCGGAUCUGCAC; value = -1.48
Oligonucleotide = CAAGUCCUGUGCUACACAUCGUAUGUACCGAAUCGGCCCGGGGCCCGGGGCCCGGGAAAGUAUUAUGUUACGCCGUUCGGAUCUGCACUU; value = -1.4
Oligonucleotide = ACCAUGCAGGUGGGCAACUUUGGGAAGUGGGGCAAGGGGGGGAUAGGGAGGGGGGUAACACUUUGGGAACAGGUGGUCCCAGGUCGUUUC; value = 1.46
Oligonucleotide = AAGUCCUGUGCUACACAUCGUAUGUACCGAAUCGGAGGAAAAAAAGGAAAAAAAGGAAAGUAUUAUGUUACGCCGUUCGGAUCUGCACUU; value = -1.02
Oligonucleotide = UCAAGUCCUGUGCUACACAUCGUAUGUACCGAAUCGGAAAGGUUUUUGGAAAGGAAAGUAUUAUGUUACGCCGUUCGGAUCUGCACUUCC; value = -0.966
Oligonucleotide = GCAGGAAGUAAAAACAAAUGGAAAUGCUUCGGAUAGUGGAAAGGGUGGGGGUUGCUAAGGAAAGGGUGGGAUGGGAGUGGGUAAAGAGUU; value = 1.38
Oligonucleotide = UGGGAGGUGGAUUUUGUUUAUUUUUUUAGCUCAUUUCCAGGGGUGGGAAUUUUUUUUUAAUAUGUGUCAUGAAUAAAGUUGUCUUUGAAA; value = 0.0651

Sample 2
Target: RING finger protein unkempt homolog, zinc fingers 1-6, GST-SBP tag (UNK, Homo sapiens, UniProt Q9C0B0, residues 30-357)
Technique: RNA Bind-n-Seq
Form: RNA
Medium: in vitro
Concentration: not given
Notes: RNA with constant flanks, human-mouse chimeric sites, ends assumed
Baseline: input RNA pool
Direction: higher = stronger binding
Measurement: bound/input enrichment
All sequences stand within: GGGAGUUCUACAGUCCGACGAUC … CAACAGAGGAUUGAGCAUCA
Target sequence (chain): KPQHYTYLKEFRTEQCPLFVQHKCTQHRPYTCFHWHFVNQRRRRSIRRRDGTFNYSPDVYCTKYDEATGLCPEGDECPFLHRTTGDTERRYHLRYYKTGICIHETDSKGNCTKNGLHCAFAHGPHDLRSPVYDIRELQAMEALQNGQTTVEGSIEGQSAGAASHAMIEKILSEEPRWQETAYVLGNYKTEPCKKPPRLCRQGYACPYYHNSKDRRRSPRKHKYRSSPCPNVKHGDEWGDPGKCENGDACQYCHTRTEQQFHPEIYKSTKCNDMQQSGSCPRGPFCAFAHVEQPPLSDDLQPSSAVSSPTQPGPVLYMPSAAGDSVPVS
Oligonucleotide = UGUGCCCCACAAGAUCCUACCUGAGUGGCAGCUGAAGUUGACUCCCUCUCCUUGCCUGAACCCCCCCCCACUGCCCCUUGAGUCCACAGUGUCGGCUGAGAUGUUGCCUCUGCACGGUUC; value = 0.385 ratio
Oligonucleotide = GGAAGUACAAUGAUGGAGAUUGAUGGUGAUAAAGGCAAGCAGGGCGGGCCCACCUACUACAUAGACACCAAUGCCCUCCGCGUGCCCAGGGAGAACAUGGAGGCCAUCUCACCACUCAAG; value = 0.229 ratio
Oligonucleotide = AGAAAGCAAAACUUGGAACGAUUUAAGAAAGGAGACGUAAGAUUCUUGAUUUGCACAGAUGUAGCUGCUAGAGGGAUUGAUAUCCACGGCGUUCCUUAUGUGAUCAAUGUCACUCUGCCU; value = 0.107 ratio
Oligonucleotide = UUUGUAUUUAUGCUAAGCACACGUGCUGGUGGUCUUGGCAUCAAUCUUGCAACUGCUGAUGUAGUCAUUUUGUAUGACUCAGAUUGGAAUCCGCAAGUUGAUCUUCAGGCUAUGGACCGU; value = 0.125 ratio
Oligonucleotide = CACACACUCUUCUGCGGGACCCUCAUCCUGCAGGCCCGGGCCUAUGUGGGACCGCACGUCCUGGCAGUGGUGACCCGCACAGGGUUCUGCACAGCCAAAGGGGGCCUGGUGAGCUCCAUC; value = 0.0813 ratio
Oligonucleotide = UCUGGUCACACUCGUGUGUAUGGUGUUUGCUUUGUGGACACUUCACUGGGAAAGUUUUUCAUCGGCCAGUUUUCGGAUGACCGCCACUGUUCCAGAUUUAGGACGCUAGUGGCACACUAU; value = 0.158 ratio
Oligonucleotide = AUGGAACAUUUCGAUGCGUCACUCAGUACCUAUUUCAAGGCAUUGCUGGGCCCCCGAGAUACAAGAGUAAAAGGAUGGUUCCUCCUGGACAAUUACAUCCCUACGUUUGUCUGUUCUGUU; value = 0.0923 ratio
Oligonucleotide = CACACACUCUUCUGCGGGACCCUCAUCUUGCAGGCCCGGGCCUAUGUGGGACCGCACGUGCUAGCAGUGGUGACCCGCACAGGGUUCUGCACGGCAAAAGGGGGCCUGGUGAGCUCCAUC; value = 0.0953 ratio
Oligonucleotide = UCUGGUCACACUCGUGUGUAUGGUGUUUGCUUUGUGGACACUUCACUGGGAAAGUUUUUCAUAGGUCAGUUUUCGGAUGACCGCCACUGUUCCAGAUUUAGGACGCUAGUGGCUCACUAU; value = 0.378 ratio
Oligonucleotide = CGCCUGGAUGAGGCGGGUGUCACAGAUGAAGUGCUAGAUUCUGCCAUGCAAGCCUUCCUUCUGGAGGUCAUUGUUAAACAUGGGGAGCCAGCCCCUUAUUUAUGUAACAAAGAUCCGUUU; value = 0.0895 ratio

Sample 3
Target: RNA binding protein fox-1 homolog 2, RRM domain, GST-SBP tag (RBFOX2, Homo sapiens, UniProt O43251-10, residues 100-194)
Technique: RNA Bind-n-Seq
Form: RNA
Medium: in vitro
Concentration: 365 nM
Notes: natural RNA segment, single round, ends assumed
Baseline: no-protein control
Direction: higher = stronger binding
Measurement: RBNS enrichment (R)
All sequences stand within: GGGAGUUCUACAGUCCGACGAUC … UGGAAUUCUCGGGUGCCAA
Target sequence (chain): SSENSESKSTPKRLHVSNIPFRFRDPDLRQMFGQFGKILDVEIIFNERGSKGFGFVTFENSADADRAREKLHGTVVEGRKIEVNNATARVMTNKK
Oligonucleotide = AUUGUUGUGUCAGUGUAGAAUAGUGGCAUAAAUAAAUGAAUUAAGCUACAUUUCCAUGCAGGCAUUUGCACUUUGAAGUUAGGGCUGCCCAGUGCCACAUGCAAAGAGUG; value = 0.467
Oligonucleotide = GACAGCACAGGGGACAGGUGGCACACCAUGAGAGGUCUGCCCAGGGUGGGAGCAGUGUCACUGUGCUAGCAAUAGUUGGCUUCUCCCCUGUCAGUGGAAACCCCACUUCU; value = 0.313
Oligonucleotide = CUGUGUGGACAUUGUUUGAGGAGCUAGAAAGAAGAUCGGCUGGGGAUCACGAGCCCCUACUUCCCAAAGAAUAAAUGGGCUUAGUGAUCAAGGUUCUUCAAGGGGUCUUU; value = 0.58
Oligonucleotide = GAGAGGGCAUAGUUCUCCAGAGCGUCAAGGUUUCCUGAAGUUUUCAAAAGCUGCUGUCACAAUUUCAUUCCGAGGCCAUCUUGCCCCUCCCCCUUCACUCUGCCUUCCUG; value = 0.63
Oligonucleotide = CAGUAGGGACUCUGUGUGGGGGCUCCCACACCACAUUUCCCUUCUGCACUGCCCUAGCAGAGGUUCUCUCCCCUGCCGCUGAGAGGGCCUCUCCCCUGCAGCAAACGUUU; value = 0.322
Oligonucleotide = AGUGUUCUCUUCGAGCAAAGUAGACCUGGGUCACUGUAGGCAUAGGACUUGGAUUGCUUCAGAUGGUUUGCUGUAUCAUUUUUCUUCUUUUUCUUUUCCUGGGGACUUGU; value = 1.04
Oligonucleotide = AAAAUGUGGAUAGAUACUGUGAAGCUGCUCGCUCAGAAAUACAAGUUCUGGAACAUCUGAAUACAACAGACCCCAACAGUACUUGCCGCUGUGUCCAGAUGUUGGAAUGG; value = 0.421
Oligonucleotide = GCUGGAGUUUGGGGGAAGGGGAUGGCUGGAUGUGCUCCAGGCCAUGCUGGAGGUACCCCCGAGGCACAGGCACUGCCCGUUCCCCUUGCCUGGGCUUCAGGCCUUCUGGC; value = 0.566
Oligonucleotide = GUGUAUUGUGCCUUGUGGUGAGUAAUAAAUUAUGGCCAUUGGAAACAUUGUACAUUUAGUGUGUGUAUUUUAAUAAUGGUUGAUCUUAAAUCUGUAUACAAAAUAUCACU; value = 0.367
Oligonucleotide = AGAAAUCUAUAGAAAGUGUUCUGUUACAAAAUGUAACUGUUACCAUUGGAAAUUUCACGUCAUAGGAAGUUAGCCUUUAUCUACCAACUUUCAAGAACUUGUUUAAUAAA; value = 0.382
Oligonucleotide = AUCUUCUGUUGAUUUACACCUUUGACAUUUGUAUUCGUCAACCCUGUGGCUUGUUAGCAUCAGAACCUCUCUGAAGACCAAACUUCCCUGUGUGGCCAGCAGAGGAAGCC; value = 0.539
Oligonucleotide = AACGUGUUGGUGCUAUAAGCUGCUUCAAAUACCAGUUUGUCUGUAGUGUGUACUCACCUAAUCACUUGUUAUCCAGUGCCUGUUCUAGGUUUAUGGACUUAACUAUUUCU; value = 0.179

Single results of other studies
Substance = PhoQ, residues 284 288 289 292 302 303 TASMAF; target = PhoP, residues 12 14 15 18 19 SMASL (Escherichia coli, UniProt P23836); assay = Sort-seq, refers to: YFP reporter; system = E. coli; conditions = PhoQ-PhoP variant library, added: 10 µM Mg2+; scale = baseline: high Mg2+ state, higher = stronger signaling; measurement = fold induction; value = 3.59
